Experimental data of several laboratories.
Lines come from different studies, so protocols differ. Values joined by “and” are separate records of one study, mostly repeats; a detail may differ. ± gives the spread as reported.

O=C1CC(=O)N(c2ccccc2)c2cc(Cl)ccc2N1 — blood concentration (129X1/SvJ mice, whole blood; oral, 1 mg/kg, 2 h): 1000 nM
O=C(O)CCC(NP(=O)(O)OCCC[C@@H](NC(=O)CCC(NC(=O)c1ccc([18F])cc1)C(=O)O)C(=O)O)C(=O)O (some centres unmarked) — tracer uptake (CWR22Rv1 tumour model; host not given, blood; intravenous, 2 h, tumour-bearing): 0.07 %ID/g
NCC12C3CCC4C3C3C(CCC31)C42 — CC50 (dog cells; cytotoxicity; 3 (unit not given)): 78 µM
[2H]c1c(NS(C)(=O)=O)c([2H])c2c(C(=O)c3ccc(OCCCN(CCCC)CCCC)cc3)c(CCCC)oc2c1[2H] — EC50 (H9c2 differentiated; cytotoxicity, measured: dead-cell protease; 6 h): 27.6 ± 2.34 µM
CCCC(=O)NCC(=O)N[C@@H](CC(C)C)C(=O)N[C@@H](CC(C)C)C(=O)N[C@@H](CCCCN)C(=O)N[C@@H](CCCNC(=N)N)C(=O)N[C@H](C(=O)N[C@@H](CCCCN)C(=O)N[C@H](C(=O)N[C@@H](CC(C)C)C(=O)N[C@@H](CC(C)C)C(=O)NCCCC[C@H](NC(=O)[C@H](CCCCNC(=O)[C@H](CC(C)C)NC(=O)[C@H](CC(C)C)NC(=O)[C@@H](NC(=O)[C@H](CCCCN)NC(=O)[C@@H](NC(=O)[C@H](CCCNC(=N)N)NC(=O)[C@H](CCCCN)NC(=O)[C@H](CC(C)C)NC(=O)[C@H](CC(C)C)NC(=O)CNC(=O)CCC)[C@@H](C)CC)[C@@H](C)O)NC(=O)[C@H](CC(C)C)NC(=O)[C@H](CC(C)C)NC(=O)[C@@H](NC(=O)[C@H](CCCCN)NC(=O)[C@@H](NC(=O)[C@H](CCCNC(=N)N)NC(=O)[C@H](CCCCN)NC(=O)[C@H](CC(C)C)NC(=O)[C@H](CC(C)C)NC(=O)CNC(=O)CCC)[C@@H](C)CC)[C@@H](C)O)C(N)=O)[C@@H](C)O)[C@@H](C)CC — minimum haemolytic concentration (human erythrocytes; 1 h, 37 °C, 10% haemolysis): 3.18 µM
C[C@@](O)(C(F)F)[C@H](NC(=O)c1ccc(C#CC#CC2CC2)cc1)C(=O)NO — oral bioavailability (CD-1 mouse; oral, 40 mg/kg, not fasted; relative to: AUC oral over AUC IV): ~23% and 23%
Cc1nc([C@H](NC(=O)c2ccc(-c3ccc(Cl)cc3)[nH]2)[C@@H]2CCCCN2)sc1CO — CC50 (U87.CD4.CXCR4; cell growth or viability, XTT): ~30 µM
CCCCCCCC(=O)NCC(=O)N[C@@H](CC(C)C)C(=O)N[C@@H](CC(C)C)C(=O)N[C@@H](CCCCN)C(=O)N[C@@H](CCCNC(=N)N)C(=O)N[C@H](C(=O)N[C@@H](CCCCN)C(=O)N[C@H](C(=O)N[C@@H](CC(C)C)C(=O)N[C@@H](CC(C)C)C(=O)NCCCC[C@H](NC(=O)[C@H](CC(C)C)NC(=O)[C@H](CC(C)C)NC(=O)[C@@H](NC(=O)[C@H](CCCCN)NC(=O)[C@@H](NC(=O)[C@H](CCCNC(=N)N)NC(=O)[C@H](CCCCN)NC(=O)[C@H](CC(C)C)NC(=O)[C@H](CC(C)C)NC(=O)CNC(=O)CCCCCCC)[C@@H](C)CC)[C@@H](C)O)C(=O)NCCCC[C@H](NC(=O)[C@H](CCCCNC(=O)[C@H](CC(C)C)NC(=O)[C@H](CC(C)C)NC(=O)[C@@H](NC(=O)[C@H](CCCCN)NC(=O)[C@@H](NC(=O)[C@H](CCCNC(=N)N)NC(=O)[C@H](CCCCN)NC(=O)[C@H](CC(C)C)NC(=O)[C@H](CC(C)C)NC(=O)CNC(=O)CCCCCCC)[C@@H](C)CC)[C@@H](C)O)NC(=O)[C@H](CC(C)C)NC(=O)[C@H](CC(C)C)NC(=O)[C@@H](NC(=O)[C@H](CCCCN)NC(=O)[C@@H](NC(=O)[C@H](CCCNC(=N)N)NC(=O)[C@H](CCCCN)NC(=O)[C@H](CC(C)C)NC(=O)[C@H](CC(C)C)NC(=O)CNC(=O)CCCCCCC)[C@@H](C)CC)[C@@H](C)O)C(N)=O)[C@@H](C)O)[C@@H](C)CC — minimum haemolytic concentration (human erythrocytes; 1 h, 37 °C, 10% haemolysis): 103 µM
COc1cc(C(=O)NCCOCCOCCOCCNC(=O)c2ccc([18F])nc2)ccc1NC(=O)C1NC(CC(C)(C)C)C(C#N)(c2ccc(Cl)cc2F)C1c1cccc(Cl)c1F (centres unmarked) — tracer uptake (HepG2 tumour model; host not given, muscle; 2 h, tumour-bearing): 0.88 %ID/g
CN[C@](C)(C[18F])C(=O)O — tracer uptake (A549 tumour model; host not given, pancreas; 30 min, tumour-bearing): 38 %ID/g
CCC(=O)N(C)c1ccc(Cl)c(Cl)c1 — revertants (Salmonella typhimurium; Ames test; TA1537; 0.05 mg/plate, with rat liver S9): 3 ± 2.6 revertants/plate
CCC1CN2CCC3(O)C(=Nc4cccc(OC)c43)C2CC1C(=COC)C(=O)OC (centres unmarked) — IC50 (UDP-glucuronosyltransferase, human; 4-MU glucuronidation, inhibitor; human liver microsomes; 30 min, pH 7.4, together with: 4-methylumbelliferone 100 µM): > 100 µM
CCCCCCCCCC(=O)NCC(=O)N[C@@H](CC(C)C)C(=O)N[C@@H](CC(C)C)C(=O)N[C@@H](CCCCN)C(=O)N[C@@H](CCCNC(=N)N)C(=O)N[C@H](C(=O)N[C@@H](CCCCN)C(=O)N[C@H](C(=O)N[C@@H](CC(C)C)C(=O)N[C@@H](CC(C)C)C(N)=O)[C@@H](C)O)[C@@H](C)CC — minimum haemolytic concentration (human erythrocytes; 1 h, 37 °C, 10% haemolysis): 16.4 µM
CN(C)CCNC(=O)/C=C/C(Cc1ccccc1)Nc1ccnc2cc(Cl)ccc12 (centres unmarked) — selectivity ratio (Plasmodium falciparum; Vero, 3D7 chloroquine-sensitive; relative to: CC50 Vero over IC50 parasite): 1140
O=C(O)CCC(NP(=O)(O)OCCC[C@@H](NC(=O)CCC(NC(=O)CCCCCNC(=O)c1ccc([18F])cc1)C(=O)O)C(=O)O)C(=O)O (some centres unmarked) — tracer uptake (CWR22Rv1 tumour model; host not given, bone; intravenous, 2 h, tumour-bearing): 0.23 %ID/g
C[C@]12CC[C@H](OCC[18F])C[C@H]1CC[C@@H]1[C@@H]2CC[C@]2(C)[C@@H](c3ccc(=O)oc3)CC[C@]12O — tracer uptake (SMMC-7721 tumour model; nude, tumour; intravenous, 7.4 MBq, 2 h, tumour-bearing): 3.63 %ID/g
COc1ccc(CNc2nc(N3CCC[C@H]3CO)ncc2C(=O)NNC(=O)c2cnc(N3CCC[C@H]3CO)nc2NCc2ccc(OC)c(Cl)c2)cc1Cl — revertant count (Salmonella typhimurium; TA1535; 125 µg/plate, 48 h): 37 ± 2
CN(C)CC1CCCCC1(O)c1cccc(O)c1 (centres unmarked) — Papp A-to-B (Caco-2 TC7 monolayer; 1 µM, 3 h, apical pH 6.8, basolateral pH 7.4): 8.3 ± 0.3 ×10⁻⁶ cm/s
Cl.Cl.Cl.Cl.Cl.Cl.Cl.Cl.Cl.Cl.Cl.Cl.NC[C@@H]1O[C@H](O[C@H]2[C@@H](O)[C@H](O[C@@H]3[C@@H](O)[C@H](N)C[C@H](N)[C@H]3O[C@H]3O[C@H](CN)[C@@H](O)[C@H](O)[C@H]3N)O[C@@H]2Cn2cc(-c3ccc(-c4cn(C[C@H]5O[C@@H](O[C@@H]6[C@@H](O)[C@H](N)C[C@H](N)[C@H]6O[C@H]6O[C@H](CN)[C@@H](O)[C@H](O)[C@H]6N)[C@H](O)[C@@H]5O[C@H]5O[C@@H](CN)[C@@H](O)[C@H](O)[C@H]5N)nn4)cc3)nn2)[C@H](N)[C@@H](O)[C@@H]1O — CT5 (MT-2; cytotoxicity): 17 µM
CCCCCCCCCCCC(=O)NCC(=O)N[C@@H](CC(C)C)C(=O)N[C@@H](CC(C)C)C(=O)N[C@@H](CCCCN)C(=O)N[C@@H](CCCNC(=N)N)C(=O)N[C@H](C(=O)N[C@@H](CCCCN)C(=O)N[C@H](C(=O)N[C@@H](CC(C)C)C(=O)N[C@@H](CC(C)C)C(N)=O)[C@@H](C)O)[C@@H](C)CC — minimum haemolytic concentration (human erythrocytes; 1 h, 37 °C, 10% haemolysis): 11.4 µM
COc1ccc(CNc2nc(N3CCC[C@H]3CO)ncc2C(=O)NN)cc1Cl — revertant count (Salmonella typhimurium; TA98; 62.5 µg/plate, 48 h): 34 ± 4
Clc1cc2c(cc1Cl)Oc1c(cc(Cl)c(Cl)c1Cl)O2 — mass balance (Caco-2 monolayer; GC-HRMS; static Transwell; 0.2 ng/mL, 24 h, 1% DMSO, congener mixture): 85 ± 2%
NC1CCN(C(=O)OC2CCCC3(C2)OOC2(O3)C3CC4CC(C3)CC2C4)CC1 (centres unmarked) — Cmax (mouse, plasma; oral, 50 mg/kg, single dose): 631 ng/mL

A few entries again:
CCCCCCCCCCCC(=O)NCC(=O)N[C@@H](CC(C)C)C(=O)N[C@@H](CC(C)C)C(=O)N[C@@H](CCCCN)C(=O)N[C@@H](CCCNC(=N)N)C(=O)N[C@H](C(=O)N[C@@H](CCCCN)C(=O)N[C@H](C(=O)N[C@@H](CC(C)C)C(=O)N[C@@H](CC(C)C)C(N)=O)[C@@H](C)O)[C@@H](C)CC — minimum haemolytic concentration (human erythrocytes; 1 h, 37 °C, 10% haemolysis): 11.4 µM
CCCCCCCCCC(=O)NCC(=O)N[C@@H](CC(C)C)C(=O)N[C@@H](CC(C)C)C(=O)N[C@@H](CCCCN)C(=O)N[C@@H](CCCNC(=N)N)C(=O)N[C@H](C(=O)N[C@@H](CCCCN)C(=O)N[C@H](C(=O)N[C@@H](CC(C)C)C(=O)N[C@@H](CC(C)C)C(N)=O)[C@@H](C)O)[C@@H](C)CC — minimum haemolytic concentration (human erythrocytes; 1 h, 37 °C, 10% haemolysis): 16.4 µM
NCC12C3CCC4C3C3C(CCC31)C42 — CC50 (dog cells; cytotoxicity; 3 (unit not given)): 78 µM
